Earlier results that unrelated publications cite.
Each line is one published result; not all experiments were run side by side.
UniProt Q15418, sequence (whole entry, looked up): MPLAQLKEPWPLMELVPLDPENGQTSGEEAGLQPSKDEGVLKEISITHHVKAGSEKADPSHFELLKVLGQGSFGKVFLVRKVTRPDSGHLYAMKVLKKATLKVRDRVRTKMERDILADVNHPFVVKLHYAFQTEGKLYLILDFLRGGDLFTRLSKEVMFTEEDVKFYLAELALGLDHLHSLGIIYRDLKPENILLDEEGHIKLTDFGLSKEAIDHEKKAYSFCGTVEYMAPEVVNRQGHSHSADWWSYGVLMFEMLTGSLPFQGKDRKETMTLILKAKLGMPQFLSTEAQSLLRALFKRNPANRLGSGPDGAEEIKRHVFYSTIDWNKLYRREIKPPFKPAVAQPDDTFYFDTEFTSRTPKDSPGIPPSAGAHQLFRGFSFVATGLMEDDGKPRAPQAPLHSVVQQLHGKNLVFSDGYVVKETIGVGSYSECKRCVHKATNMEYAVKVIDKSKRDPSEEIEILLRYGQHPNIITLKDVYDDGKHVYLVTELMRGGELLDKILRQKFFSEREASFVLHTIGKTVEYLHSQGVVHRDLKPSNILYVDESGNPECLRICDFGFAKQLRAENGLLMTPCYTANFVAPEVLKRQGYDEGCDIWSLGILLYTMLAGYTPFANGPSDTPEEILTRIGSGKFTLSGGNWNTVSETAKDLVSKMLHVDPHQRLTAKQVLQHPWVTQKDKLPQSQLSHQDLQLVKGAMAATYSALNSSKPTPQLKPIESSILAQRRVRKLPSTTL

Compound	target or system	test	test system	setting	scale	endpoint	value
CC(=O)CC(c1ccccc1)c1c(O)c2ccccc2oc1=O (stereo not drawn)	–	–	human	average of reported values	–	plasma clearance	0.051 mL/min/kg
CC(C)c1nc(CN(C)C(=O)N[C@@H](CCN2CCOCC2)C(=O)N[C@H](CC[C@H](Cc2ccccc2)NC(=O)OCc2cncs2)Cc2ccccc2)cs1	–	–	human	–	–	plasma half-life	3 to 4 h
Cc1ccc(NC(=O)c2ccc(CN3CCNCC3)cc2)cc1Nc1nc(-c2cccnc2)cs1	–	–	human, plasma	dose not given, steady state, major metabolite	baseline: masitinib	plasma concentration relative to parent	20 to 30%
Clc1ccc(C(c2ccccc2Cl)C(Cl)Cl)cc1 (stereo not drawn)	–	–	human	–	–	plasma elimination half-life	18 to 159 days
CC(C)Cc1ccc(C(C)C(=O)O)cc1 (stereo not drawn)	–	–	human	600 mg single dose	–	plasma concentration	~100 µM
Cc1ccc(NC(=O)c2ccc(CN3CCN(C)CC3)cc2)cc1Nc1nc(-c2cccnc2)cs1	–	–	human, plasma	300 mg twice daily	–	plasma concentration	1.7 µM
Nc1cc(C(F)(F)F)c(-c2nc(N3CCOCC3)nc(N3CCOCC3)n2)cn1	Ribosomal protein S6 kinase alpha-1, C-terminal kinase domain (RPS6KA1, Homo sapiens, UniProt Q15418)	enzyme activity	–	10 µM	baseline: untreated	remaining activity	86%
C#C[C@]1(CO)O[C@@H](n2cnc3c(N)nc(F)nc32)C[C@@H]1O	–	–	human	30 mg, with: high-fat meal	baseline: fasted	plasma AUC(0-inf) increase	10%
CNS(=O)(=O)Nc1nccc(Cc2c(C)c3ccc(Oc4ncccn4)cc3oc2=O)c1F	–	–	human, plasma	–	–	plasma half-life	60 h
CCN1CCN(Cc2ccc(Nc3ncc(F)c(-c4cc(F)c5nc(C)n(C(C)C)c5c4)n3)nc2)CC1	–	–	human patients	200 mg, mean	–	plasma elimination half-life	0.875 days
CC(C)c1nc(CN(C)C(=O)N[C@H](C(=O)N[C@@H](Cc2ccccc2)C[C@H](O)[C@H](Cc2ccccc2)NC(=O)OCc2cncs2)C(C)C)cs1	–	–	human	600 mg twice daily, HIV clinical dosing	–	plasma concentration	15 µM
CC(C)(O)c1ccccc1CC[C@@H](SCC1(CC(=O)O)CC1)c1cccc(/C=C/c2ccc3ccc(Cl)cc3n2)c1	–	–	human	average of reported values	–	plasma clearance	0.71 mL/min/kg

For quick reference, copied from above:
Compound	target or system	test	test system	setting	scale	endpoint	value
CC(C)Cc1ccc(C(C)C(=O)O)cc1 (stereo not drawn)	–	–	human	600 mg single dose	–	plasma concentration	~100 µM
CC(C)c1nc(CN(C)C(=O)N[C@@H](CCN2CCOCC2)C(=O)N[C@H](CC[C@H](Cc2ccccc2)NC(=O)OCc2cncs2)Cc2ccccc2)cs1	–	–	human	–	–	plasma half-life	3 to 4 h
